# Experimental data pooled from the literature.
# Every numbered part comes from another study and shows a few of its results, in no order. Values joined by “and” are separate records of one study, mostly repeats; a detail may differ.

# Study 1
# Target: Calcium/calmodulin-dependent protein kinase type II subunit alpha (CAMK2A, Homo sapiens, UniProt Q9UQM7)
# Read-out: enzyme activity
# Mode: inhibitor
# Tested at: 10 µM
Structure (SMILES),inhibition [%]
O=c1cc(-c2ccccc2)oc2cc(O)ccc12,2
CN(C)CCC(c1ccc(Cl)cc1)c1ccccn1 (centres unmarked),-2
C=C1[C@H](OC(=O)/C=C(\C)CC)C[C@@H](C(C)C)[C@@H]2[C@@H]([C@@H](C)OC(C)=O)C(=O)C[C@@H]12,-9
Cc1cc(NS(=O)(=O)c2ccc(N)cc2)nc(C)n1,3
Oc1c(Cl)cc(Cl)c2cccnc12,-3
COc1ccc2c(=O)c(-c3ccc(O)cc3)coc2c1,-15
O=C(/C=C/c1ccc(O)c(O)c1)OC1[C@H](O)CC(OC(=O)/C=C/c2ccc(O)c(O)c2)(C(=O)O)C[C@H]1O (some centres unmarked),-3
CCCCCCCCOC(C)=O,-23

# Study 2
# Structure (SMILES): c1ccc(N2CCN(Cc3nc4ccccc4[nH]3)CC2)nc1
# Technique: competition with immobilised ligand
# Tested at: 1 µM
target,assay,remaining binding
"MAP3K19 (Homo sapiens, UniProt Q56UN5)",binding,100%
"STK39 (Homo sapiens, UniProt Q9UEW8)",binding,100%
"NEK4 (Homo sapiens, UniProt P51957)",binding,100%
"YES1 (Homo sapiens, UniProt P07947)",cell-free assay,100%
"Tyrosine-protein kinase JAK3, JH1 (JAK3, Homo sapiens, UniProt P52333)",binding,100%
"EGFR (Homo sapiens, UniProt P00533, L861Q)",cell-free assay,74%
"MAP3K6 (Homo sapiens, UniProt O95382)",binding,98%
"Tyrosine-protein kinase ABL1, non-phosphorylated (ABL1, Homo sapiens, UniProt P00519, T315I)",binding,100%
"PAK2 (Homo sapiens, UniProt Q13177)",cell-free assay,100%
"CDK15 (Homo sapiens, UniProt Q96Q40)",binding,95%
"MAP2K7 (Homo sapiens, UniProt O14733)",binding,100%
"MATK (Homo sapiens, UniProt P42679)",binding,100%
"MAP3K4 (Homo sapiens, UniProt Q9Y6R4)",binding,100%
"DDR1 (Homo sapiens, UniProt Q08345)",cell-free assay,100%
"Cyclin-dependent kinase 4, with cyclin D3 (CDK4, Homo sapiens, UniProt P11802)",binding,100%
"SRMS (Homo sapiens, UniProt Q9H3Y6)",cell-free assay,94%
"Ribosomal protein S6 kinase alpha-3, N-terminal kinase domain (RPS6KA3, Homo sapiens, UniProt P51812)",binding,100%
"HIPK2 (Homo sapiens, UniProt Q9H2X6)",binding,26%
"CILK1 (Homo sapiens, UniProt Q9UPZ9)",binding,100%
"MAPK12 (Homo sapiens, UniProt P53778)",binding,74%
"FLT3 (Homo sapiens, UniProt P36888, R834Q)",binding,100%
"ERBB3 (Homo sapiens, UniProt P21860)",binding,91%
"AKT1 (Homo sapiens, UniProt P31749)",binding,90%
"Tyrosine-protein kinase ABL1, phosphorylated (ABL1, Homo sapiens, UniProt P00519, H396P)",binding,100%
"FER (Homo sapiens, UniProt P16591)",binding,100%

# Study 3
# SMILES: C[C@@H]1CN(c2ccc(-c3cc(C(=O)NCCOCCOCCOCCOCCNC(=O)/C=C/c4[nH]cc(C(=O)N[C@@H](CC(N)=O)c5ccc(F)c(Cl)c5)c4-c4ccc(Cl)cc4F)ccc3F)cc2NC(=O)c2c[nH]c(=O)cc2C(F)(F)F)C[C@H](C)N1C
# Mode: degrader
# Time: 24 h
# WDR5/DCAF1: WDR5/DCAF1 (Homo sapiens, UniProt P61964+Q9Y4B6)
# WDR5: WD repeat-containing protein 5 (WDR5, Homo sapiens, UniProt P61964)
target,assay,setting,scale,remaining protein level
WDR5/DCAF1,HiBiT luminescence,227 nM,,97% and 88.7% and 83.1%
WDR5/DCAF1,HiBiT luminescence,13.3 nM,,102% and 97.2% and 89%
WDR5/DCAF1,HiBiT luminescence,3800 nM,,72.5% and 69.6% and 78%
WDR5/DCAF1,HiBiT luminescence,10000 nM,,92% and 88.4% and 93.3%
WDR5,"Jess capillary immunoassay, item: WDR5 over vinculin",60.3 nM,relative to: DMSO,79.6% and 74.9% and 112% and 60.7% and 97.8% and 64.8%
WDR5,"Jess capillary immunoassay, item: WDR5 over vinculin",777 nM,relative to: DMSO,67.5% and 87% and 50.8% and 81.6% and 54% and 63.9%
WDR5/DCAF1,HiBiT luminescence,585 nM,,87.4% and 78.1% and 66.7%

# Study 4
# Structure (SMILES): NC(N)=NC(=O)c1nc(Cl)c(N2CCCCCC2)nc1N
# Read-out: β-arrestin recruitment
# Mode: agonist
# Technique: PRESTO-Tango
# Tested at: 10 µM
# Relative to: untreated
target,fold over basal
"GRM5 (Homo sapiens, UniProt P41594)",0.63 fold
"PTGER1 (Homo sapiens, UniProt P34995)",0.63
"GPR39 (Homo sapiens, UniProt O43194)",0.72
"PROKR1 (Homo sapiens, UniProt Q8TCW9)",0.95
"G-protein coupled receptor 78 (GPR78, Homo sapiens, UniProt Q96P69)",0.83
"G-protein coupled receptor 22 (GPR22, Homo sapiens, UniProt Q99680)",0.61
"NPBWR2 (Homo sapiens, UniProt P48146)",0.93
"MCHR1 (Homo sapiens, UniProt Q99705)",1.13
"MC4R (Homo sapiens, UniProt P32245)",1.7
"TSHR (Homo sapiens, UniProt P16473)",0.76 fold

# Repeated from above (study 2):
target,assay,remaining binding
"CILK1 (Homo sapiens, UniProt Q9UPZ9)",binding,100%
"MAPK12 (Homo sapiens, UniProt P53778)",binding,74%
"FLT3 (Homo sapiens, UniProt P36888, R834Q)",binding,100%
"ERBB3 (Homo sapiens, UniProt P21860)",binding,91%
